Measured values gathered from unrelated publications.
Every numbered part comes from another study and shows a few of its results, in no order. “And” joins repeats or separate records; there may be more than shown. Changes are numbered by the printed parent chain.
Sequence of UniProt P28335 (whole entry, looked up): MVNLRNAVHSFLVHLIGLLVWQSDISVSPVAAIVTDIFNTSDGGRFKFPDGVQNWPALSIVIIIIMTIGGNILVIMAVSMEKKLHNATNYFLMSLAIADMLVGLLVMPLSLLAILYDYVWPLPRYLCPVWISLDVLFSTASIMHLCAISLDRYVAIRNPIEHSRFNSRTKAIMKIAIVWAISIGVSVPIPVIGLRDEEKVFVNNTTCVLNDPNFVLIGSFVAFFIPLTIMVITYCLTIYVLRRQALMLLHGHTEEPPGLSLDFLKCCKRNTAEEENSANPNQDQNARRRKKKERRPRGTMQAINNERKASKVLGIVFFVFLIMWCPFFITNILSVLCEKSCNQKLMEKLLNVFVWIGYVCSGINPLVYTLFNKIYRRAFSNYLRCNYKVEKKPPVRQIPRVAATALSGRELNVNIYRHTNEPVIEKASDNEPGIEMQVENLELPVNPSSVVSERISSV

Set 1
Target: CCND1, cyclin fold, Cln2 fusion (human)
Method: yeast growth competition, sequencing
Sample: yeast
Notes: weak parent motif
Baseline: not given
Reading: higher = stronger binding
Endpoint: normalised enrichment score
Starting sequence: viral docking peptide; PGASRRLFGSSAD; partner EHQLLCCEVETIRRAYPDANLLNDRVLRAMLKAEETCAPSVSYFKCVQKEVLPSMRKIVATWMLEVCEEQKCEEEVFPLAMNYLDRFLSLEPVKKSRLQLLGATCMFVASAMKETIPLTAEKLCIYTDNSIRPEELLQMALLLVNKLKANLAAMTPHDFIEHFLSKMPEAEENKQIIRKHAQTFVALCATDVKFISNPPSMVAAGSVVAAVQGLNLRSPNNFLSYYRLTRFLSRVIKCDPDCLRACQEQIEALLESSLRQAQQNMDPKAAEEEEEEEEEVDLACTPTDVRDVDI
PGASRALFGSSAD [R6A]: -0.349
PGASKRLLGSSAD [R5K F8L]: -0.21
PGASRRLFASSAD [G9A]: 0.974
PGASRRLFGSAAD [S11A]: 0.412
PGASRRLFGSSAA [D13A]: 0.357
PGASARAFGSSAD [R5A L7A]: 0.198
PAASRRLFGSSAD [G2A]: 0.337
PGASRRAFGSSAD [L7A]: -0.399

Set 2
Target: UDP-N-acetylglucosamine--peptide N-acetylglucosaminyltransferase 110 kDa subunit (OGT, Homo sapiens, UniProt O15294)
Sequence of UniProt O15294 (whole entry, looked up): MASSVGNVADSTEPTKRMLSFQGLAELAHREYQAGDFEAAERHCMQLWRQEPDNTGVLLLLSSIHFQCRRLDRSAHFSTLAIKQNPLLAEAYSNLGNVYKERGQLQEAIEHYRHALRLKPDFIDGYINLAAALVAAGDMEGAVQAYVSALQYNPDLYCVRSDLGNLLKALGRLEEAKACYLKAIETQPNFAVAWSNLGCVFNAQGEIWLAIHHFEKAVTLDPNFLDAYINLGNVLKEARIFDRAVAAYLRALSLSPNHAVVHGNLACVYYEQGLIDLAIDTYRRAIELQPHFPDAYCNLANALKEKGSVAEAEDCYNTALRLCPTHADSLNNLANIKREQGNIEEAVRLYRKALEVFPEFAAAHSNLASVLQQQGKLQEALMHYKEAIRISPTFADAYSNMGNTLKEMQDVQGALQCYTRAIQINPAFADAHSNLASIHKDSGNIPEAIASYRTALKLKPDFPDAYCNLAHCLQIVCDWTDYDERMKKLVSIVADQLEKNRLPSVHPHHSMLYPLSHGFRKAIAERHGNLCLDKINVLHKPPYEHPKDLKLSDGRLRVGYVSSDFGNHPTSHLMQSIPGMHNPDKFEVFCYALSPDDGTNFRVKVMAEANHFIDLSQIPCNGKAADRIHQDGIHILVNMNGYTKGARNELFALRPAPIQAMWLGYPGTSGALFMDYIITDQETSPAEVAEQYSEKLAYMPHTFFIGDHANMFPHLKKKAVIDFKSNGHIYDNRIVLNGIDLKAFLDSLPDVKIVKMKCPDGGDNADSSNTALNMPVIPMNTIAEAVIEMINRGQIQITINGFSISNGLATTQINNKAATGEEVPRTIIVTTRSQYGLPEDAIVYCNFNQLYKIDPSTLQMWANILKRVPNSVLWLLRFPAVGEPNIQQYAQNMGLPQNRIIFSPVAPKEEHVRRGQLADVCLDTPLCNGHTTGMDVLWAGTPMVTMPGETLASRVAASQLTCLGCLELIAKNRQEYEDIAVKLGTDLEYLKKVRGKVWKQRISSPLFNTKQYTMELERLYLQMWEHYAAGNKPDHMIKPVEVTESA
Effect on: binding
Method: phage display NGS
Form: peptide
Tested at: concentration not given
Baseline: input library
Endpoint: enrichment fold change
QWQYNLMPYYSINYK: 1.97
ATWHPYHHGHEYIV: 8.89
YPWHRPHQHTYERDE: 5.34
HHPAHRTPMFATTF: 2.04
GVQDYLPMYQISMSN: 2.44
QHHWMHHEWQAHQPH: 3.04
TVQHQRYYMHWKPHH: 6.85
AHQNRYMPFYKIEFF: 9.15

Other studies, line by line
CCOC(=O)c1cc2cc(-c3cc(C(=O)NCc4ccc(C(=O)O)cc4)nn3C)ccc2[nH]1 — inhibition (HTR2C (Homo sapiens, UniProt P28335); binding, radioligand binding; 10 µM): 3.56%
O=C1CCC(N2Cc3c(ccc4c3OCC43CCN(Cc4ccccc4)CC3)C2=O)C(=O)N1 (stereo not drawn) — plasma concentration (Sprague Dawley rat, male, plasma; intravenous, 1 mg/kg, 2 h): 101 ng/mL and 118 ng/mL

Some of these lines once more (set 2):
HHPAHRTPMFATTF: 2.04
GVQDYLPMYQISMSN: 2.44
QHHWMHHEWQAHQPH: 3.04
